# Assay results from different studies.
# Numbers after ± are the reported error.
# spsB: Signal peptidase IB (spsB, Staphylococcus aureus, UniProt Q5HHB9)
# ROCK1: Rho-associated protein kinase 1 (ROCK1, Homo sapiens, UniProt Q13464)
# TRPM8: Transient receptor potential cation channel subfamily M member 8 (TRPM8, Homo sapiens, UniProt Q7Z2W7)
# ERN1: Serine/threonine-protein kinase/endoribonuclease IRE1 (ERN1, Homo sapiens, UniProt O75460)
# FLT3: Receptor-type tyrosine-protein kinase FLT3 (FLT3, Homo sapiens, UniProt P36888)
Compound,target,test,test system,conditions,how to read,remaining activity
O=C(Nc1ccc(Cc2ccccc2)cc1)Nc1ccc(Cl)c(C(F)(F)F)c1,spsB,"peptidase activity, activator, FRET peptide cleavage","Staphylococcus aureus, membranes",50 µM,baseline: DMSO,206%
COc1cc(N2CCN(C)CC2)ccc1Nc1nc(N)n(C(=S)NCc2c(Cl)cccc2Cl)n1,ROCK1,enzyme activity,,10 µM,baseline: control,0.05%
O=c1cc(N2CCNCC2)oc2c(-c3ccccc3)cccc12,TRPM8,antagonist,HEK293,5 µM,baseline: control,96.5 ± 4.09%
COc1cc(N2CCN(C)CC2)ccc1Nc1nc(N)n(C(=O)NCc2c(Cl)cccc2Cl)n1,ERN1,enzyme activity,,10 µM,baseline: control,4.4%
C=CC(=O)N1CCC([C@@H]2CCNc3c(C(N)=O)c(-c4ccc(Oc5ccccc5)cc4)nn32)CC1,FLT3,"kinase activity, inhibitor, HotSpot radiometric",,"100 nM, added: ATP 10 µM",,84.9 ± 3.4%
Nc1ncnc2c1ncn2C1OC(CSCCNCc2cccc(-c3ccccc3)c2)C(O)C1O (stereo not shown),"METTL5, with TRMT112 (Homo sapiens, UniProt Q9NRN9)",,,10 µM,,62.7%
COc1cc(Nc2ncc3c(n2)-c2ccc(Cl)cc2C(c2c(F)cccc2OC)=NC3)ccc1C(=O)O,GSK3 alpha,"inhibitor, biochemical kinase",,1 µM,,100%
CCN(CC)CCCC(C)Nc1ccnc2cc(Cl)ccc12 (stereo not shown),"Potassium voltage-gated channel subfamily KQT member 1, with KCNE1 (KCNQ1, Homo sapiens, UniProt P51787)","IKs current, patch clamp",HEK293,3 µM,baseline: pre-drug current,115%
Cc1cc(NC(=O)c2cccc(NC(=O)/C=C/CN(C)C)c2)ccc1Nc1nccc(-c2cccnc2)n1,"MAPK8 (Homo sapiens, UniProt P45983)","enzyme activity, inhibitor",,"0.0007527 µM, 0 h, unit not given, added: GSH 10 mM pre-incubation",baseline: vehicle,0.994
CNc1ncc2c(/C=C/C(=O)N3CCC(OC)CC3)nn(Cc3cccc(C(F)(F)F)c3)c2n1,ROCK1,"kinase activity, inhibitor",,1 µM,baseline: untreated control,95%
COc1cc(F)ccc1-c1ncnc(Nc2cccc(C[S@](C)(=N)=O)c2)n1,"PAK2 (Homo sapiens, UniProt Q13177)",kinase activity,,"10 µM, added: 10 µM ATP",,112%
CNC(=O)c1ccc(NC(=O)Nc2ccc(Cl)c(C(F)(F)F)c2)cc1,spsB,"peptidase activity, activator, FRET peptide cleavage","Staphylococcus aureus, membranes",100 µM,baseline: DMSO,198%
O=C1Cc2c([nH]c3ccc(Br)cc23)-c2ccccc2N1,TRPM8,antagonist,HEK293,5 µM,baseline: control,87.7 ± 2.17%
CNC(=O)c1cc(Oc2ccc(N(C)C(=O)Nc3ccc(Cl)c(C(F)(F)F)c3)cc2)ccn1,spsB,"peptidase activity, activator, FRET peptide cleavage","Staphylococcus aureus, membranes",100 µM,baseline: DMSO,130%
c1cc(-c2cnn3cc(-c4ccc(OCCN5CCCCC5)cc4)cnc23)ccn1,TRPM8,antagonist,HEK293,5 µM,baseline: control,73.5 ± 7.67%
O=C(Nc1ccc(Cl)c(C(F)(F)F)c1)N1CCc2ccccc2C1,spsB,"peptidase activity, activator, FRET peptide cleavage","Staphylococcus aureus, membranes",100 µM,baseline: DMSO,148%
O=C(c1ccccc1)c1ccc(N2CCOCC2)cc1O,TRPM8,antagonist,HEK293,5 µM,baseline: control,81.2 ± 6.95%
O=C(Nc1ccc(C(=O)Nc2ccccc2)cc1)Nc1ccc(Cl)c(C(F)(F)F)c1,spsB,"peptidase activity, activator, FRET peptide cleavage","Staphylococcus aureus, membranes",50 µM,baseline: DMSO,111%
CC#CC(=O)N1CCC[C@H]1c1nc(-c2ccc(C(=O)Nc3ccccn3)cc2)c2c(N)nccn12,"TNIK (Homo sapiens, UniProt Q9UKE5)","kinase activity, inhibitor, HotSpot radiometric",,"100 nM, added: ATP 10 µM",,91.2 ± 1.7%
COc1cc(-c2cncc3c2CN(C)Cc2cc(N4CCNCC4)ccc2-3)cc(OC)c1OC,"MAP3K21 (Homo sapiens, UniProt Q5TCX8)",kinase activity,,"1 µM, human enzyme, added: ATP 10 µM",baseline: DMSO control,116%
O=C(Nc1ccc(Nc2ccccc2)cc1)Nc1ccc(Cl)c(C(F)(F)F)c1,spsB,"peptidase activity, activator, FRET peptide cleavage","Staphylococcus aureus, membranes",100 µM,baseline: DMSO,187%
Cn1cc(/C=C2\C(=O)Nc3ccc(S(N)(=O)=O)cc32)c2ccccc21,TRPM8,antagonist,HEK293,5 µM,baseline: control,103 ± 9.27%
O=C(O)c1ccc(Nc2ncc3c(n2)-c2ccc(Cl)cc2C(c2c(F)cccc2F)=NC3)cc1,PKCδ(h),kinase activity,,1 µM,,109%
COc1ccc(F)cc1C(=O)NCc1ccc(-c2nn([C@@H](C)C(F)(F)F)c(N)c2C(N)=O)cc1,"CAMKK2 (Homo sapiens, UniProt Q96RR4)","kinase activity, inhibitor, HotSpot radiometric",,"100 nM, added: ATP 10 µM",,106 ± 1.9%
Cc1cccc(C)c1NC(=O)Nc1ccc(Cl)c(C(F)(F)F)c1,spsB,"peptidase activity, activator, FRET peptide cleavage","Staphylococcus aureus, membranes",50 µM,baseline: DMSO,106%
C=CC(=O)N1CCC[C@@H](n2nc(-c3ccc(Oc4ccccc4)cc3)c3c(N)ncnc32)C1,FLT3,"kinase activity, inhibitor, HotSpot radiometric",,"100 nM, added: ATP 10 µM",,35.9 ± 0.5%
CCOc1nc(NC(=O)Cc2cc(OC)ccc2OC)cc(N)c1C#N,TRPM8,antagonist,HEK293,5 µM,baseline: control,81.2 ± 4.74%
C=CC(=O)N1CCC[C@@H](n2nc(-c3ccc(Oc4ccccc4)cc3)c3c(N)ncnc32)C1,"LCK (Homo sapiens, UniProt P06239)",,,10 µM,,32.5%
COc1cc(O)c(CC=C(C)C)c(O)c1C(=O)/C=C/c1ccc(O)cc1,"Thyroxine 5-deiodinase (DIO3, Homo sapiens, UniProt P55073, A240R)","enzyme activity, inhibitor",,"200 µM, screening",baseline: DMSO control,-3.87%
CC(C)Oc1cc(N2CCN(C)CC2)ccc1Nc1nc(N)n(C(=O)NCc2ccccc2S(=O)(=O)C(C)C)n1,ERN1,enzyme activity,,10 µM,baseline: control,22%
NC/C(=C\F)COc1cccc(Cn2c(=S)[nH]c(=O)c3[nH]cnc32)c1,"Peroxidasin homolog (PXDN, Homo sapiens, UniProt Q92626)",Amplex UltraRed,,0.625 µM,baseline: control,99.8%
O=C1NC(=O)/C(=C/c2ccc(-c3ccc(F)cc3O)o2)S1,"AKT2 (Homo sapiens, UniProt P31751)",enzyme activity,,10 µM,,40%
O=C(Nc1cccc(C(F)(F)F)c1)Nc1ccc2c(c1)OC(F)(F)O2,spsB,"peptidase activity, activator, FRET peptide cleavage","Staphylococcus aureus, membranes",10 µM,baseline: DMSO,127%
CCN1/C(=C/C(C)=O)Sc2ccc(OC)cc21,TRPM8,antagonist,HEK293,5 µM,baseline: control,106 ± 9.1%
O=C(NC1CCC1)c1ccc2nc(-c3cccc(NS(=O)(=O)NCCN4CCCCC4)c3)cn2c1,"FLT3 (Homo sapiens, UniProt P36888, D835Y)",enzyme activity,,10 µM,,80%
O=c1c2ccccc2[nH]c(=S)n1CCN1CCC(=C(c2ccc(F)cc2)c2ccc(F)cc2)CC1,TRPM8,antagonist,HEK293,5 µM,baseline: control,95.1 ± 9.87%
Cc1cc(Nc2cc(N3CCN(C)CC3)nc(Sc3ccc(NC(=O)C4CC4)cc3)n2)[nH]n1,"WNK3 (Homo sapiens, UniProt Q9BYP7)","kinase activity, KinaseProfiler",,"0.03 µM, species human",baseline: control,108%
